Results pooled from the literature.
A part holds a random share of what one study measured.
UniProt P61075, sequence (whole entry, looked up): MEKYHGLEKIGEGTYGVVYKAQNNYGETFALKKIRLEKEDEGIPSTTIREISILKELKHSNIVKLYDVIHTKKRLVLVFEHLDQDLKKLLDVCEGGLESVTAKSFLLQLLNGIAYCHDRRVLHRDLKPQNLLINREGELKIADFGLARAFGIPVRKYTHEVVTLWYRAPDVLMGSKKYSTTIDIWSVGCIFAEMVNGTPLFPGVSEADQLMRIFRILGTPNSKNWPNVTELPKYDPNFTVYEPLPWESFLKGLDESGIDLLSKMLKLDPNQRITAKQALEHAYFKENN

Study 1 — method: protein-binding microarray; molecule type: double-stranded DNA, one strand shown; medium: in vitro; concentration: 2200 nM top; setting: 60-bp whole probe; with: salmon DNA 0.4 mg/ml; baseline: random background probes; reading: higher = stronger binding; shared flanks, not repeated: GCCTAGCAC … GTCTTGATTCGCTTGACGCTGCTG
Target: Interferon regulatory factor 7, full length, phosphomimetic (IRF7, Homo sapiens, UniProt Q92985, residues 1-503, S471D/S472D/S475D/S476D/S477D/S483D/S484D/S487D)
Construct (chain): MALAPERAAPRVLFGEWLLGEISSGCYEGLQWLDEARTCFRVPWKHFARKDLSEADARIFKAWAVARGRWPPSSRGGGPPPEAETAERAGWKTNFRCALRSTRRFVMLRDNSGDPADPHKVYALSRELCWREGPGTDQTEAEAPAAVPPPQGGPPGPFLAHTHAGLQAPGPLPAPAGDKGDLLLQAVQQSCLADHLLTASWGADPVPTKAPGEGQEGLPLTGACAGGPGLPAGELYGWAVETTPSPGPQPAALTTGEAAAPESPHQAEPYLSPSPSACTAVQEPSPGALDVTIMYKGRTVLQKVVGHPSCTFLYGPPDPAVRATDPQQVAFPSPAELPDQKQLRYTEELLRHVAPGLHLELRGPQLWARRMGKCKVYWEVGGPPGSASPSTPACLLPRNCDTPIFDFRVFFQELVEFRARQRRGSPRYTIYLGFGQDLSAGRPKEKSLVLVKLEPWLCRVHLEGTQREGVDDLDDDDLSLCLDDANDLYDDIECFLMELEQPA
Under “fitted relative affinity”, `GCTGGGTTTTCTTGGCACAGGTGCTAG` is recorded as 0.0358 z-score.
`TTAAATCTCAGTATCGATTAGTGCTAG`: “fitted relative affinity” 0.181 z-score.
`GACCGACTGGACACTGGGGACGTGCTA` — result for “fitted relative affinity”: -0.702 z-score.
For `GACGGTTTCGGTTTCGGCACGTGCTAG`, “fitted relative affinity” read 13.7 z-score.
For `TCAGGTTTCCTTCTCCTTTAGTGCTAG`, “fitted relative affinity” read 3.05 z-score.
`TCACATATAATTTTGTCATCGTGCTAG` — result for “fitted relative affinity”: 0.814 z-score.
For `TTAGGACTGCTGTTCCTTTAGTGCTAG`, “fitted relative affinity” read 0.0868 z-score.
`ATATATTCATATATATATGAGTGCTAG` — result for “fitted relative affinity”: 0.617 z-score.

Study 2 — method: RNAcompete; molecule type: RNA; medium: in vitro; concentration: 20 nM; setting: 7-mer, probes averaged, single round; baseline: mean of 7-mers; reading: higher = stronger binding
Target: PABPC1L2, full length, GST fusion (mouse, UniProt A0ABA7IW68)
Target sequence (chain): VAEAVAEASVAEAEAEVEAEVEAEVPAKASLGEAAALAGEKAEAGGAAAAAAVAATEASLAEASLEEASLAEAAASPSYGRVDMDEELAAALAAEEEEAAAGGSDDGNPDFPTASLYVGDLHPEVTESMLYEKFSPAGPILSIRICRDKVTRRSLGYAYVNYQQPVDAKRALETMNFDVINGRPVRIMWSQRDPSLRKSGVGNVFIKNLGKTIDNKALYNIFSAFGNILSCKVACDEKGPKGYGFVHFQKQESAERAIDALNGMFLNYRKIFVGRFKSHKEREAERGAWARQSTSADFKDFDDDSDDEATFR
The 7-mer Z-score of `GUAUUCU` is reported as -0.309.
With `UUUGAGC` the 7-mer Z-score was -0.298.
For `UAGGGAG`, the 7-mer Z-score was 0.233.
For `AUAAAUC`, the 7-mer Z-score was 1.91.
The 7-mer Z-score of `UAUCGUG` is reported as -0.267.
The 7-mer Z-score of `CUCGAAA` is reported as 0.222.
The 7-mer Z-score of `UCCAGAU` is reported as -0.177.
With `GGUGGGC` the 7-mer Z-score was 0.166.

Study 3 — method: protein-binding microarray; molecule type: double-stranded DNA, one strand shown; medium: in vitro; concentration: not given; reading: higher = stronger binding
Target: Hepatocyte nuclear factor 3-beta, forkhead domain (FOXA2, Homo sapiens, UniProt Q9Y261, residues 142-269)
Setting: k-mer, scored over probes, only values ≥0.25
Residues (chain): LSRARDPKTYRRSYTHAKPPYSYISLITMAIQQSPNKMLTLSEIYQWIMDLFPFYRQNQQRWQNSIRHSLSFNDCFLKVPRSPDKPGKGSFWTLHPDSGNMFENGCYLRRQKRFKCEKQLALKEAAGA
`AACCCATA` gave an E-score of 0.357.
`ATCATAAG` gave an E-score of 0.265.
The E-score of `ATAAATAA` is reported as 0.282.
The E-score of `AATTATTC` is reported as 0.281.
`AATACACT` gave an E-score of 0.368.
For `CAGTATGA`, the E-score was 0.256.
`AATCATTG` has an E-score of 0.255.
With `GTACATTA` the E-score was 0.295.

Study 4 — effect on: peptide-MHC binding; molecule type: peptide; concentration: concentration not given
Target: HLA class I histocompatibility antigen, C alpha chain, allele C*04:01 (Homo sapiens, UniProt P10321)
Under binding, `RRRPVTRPL` is recorded as “inactive”.
`FTASVSTVV`: binding “inactive”.
For `RFFKHFMSL`, binding read “inactive”.
For `WMYYPRSPV`, binding read “inactive”.
For `RENHTEGLL`, binding read “inactive”.
For `LPADPASVL`, binding read “inactive”.
For `RPAPARLPL`, binding read “inactive”.
For `YFYYNAFHWAI`, binding read “inactive”.
For `WYDALCVLL`, binding read “active”.
`RYRTAVCGL` — result for binding: “inactive”.
`QTDNQLAVF`: binding “inactive”.
`SYLTVHQMI` — result for binding: “inactive”.
For `CTSSIQYHR`, binding read “inactive”.
Under binding, `YYKKTFSAL` is recorded as “inactive”.
Under binding, `LPSCPTNFCIF` is recorded as “inactive”.
Under binding, `TVYPKTHYV` is recorded as “inactive”.
`LSDAARLFL`: binding “inactive”.
`LEEDIQHFL`: binding “inactive”.
`KVFPYALINK`: binding “inactive”.
`GSYFSGFYK` — result for binding: “inactive”.
`FARQNNGAF`: binding “inactive”.
`TTDDSTSYY` — result for binding: “inactive”.
`YQYIFLSFF` — result for binding: “inactive”.
For `WYDWQQVPF`, binding read “active”.
`YTIDLNDAF`: binding “inactive”.

Single results of other studies
`AAAVRKPIVLKR` — result for “motif binding score”: -0.246 (Saccharomyces cerevisiae; yeast competitive growth sequencing; peptide; concentration not given, peptide tiling library; baseline: Cln2-only background, direction not given).
For `O=C(O)[C@@H]1[C@@H](Cn2nnc3ccccc3c2=O)CC[C@H]1C(=O)c1ccc(OCCC2CCOCC2)cc1`, the remaining binding was 100% (Cyclin-dependent kinase 2 homolog (CRK2, Plasmodium falciparum, UniProt P61075); cell-free assay, competition with immobilised ligand; 1 µM).
`QKKAKARAFTISDSGY` has a binding score of -0.634 (human cyclin A2; peptide binding, competitive growth sequencing; peptide, Saccharomyces cerevisiae, cyclin A2-Cln2 fusion strain; concentration not given, peptide tiling library; baseline: unfused Cln2 strain, direction not given).

For quick reference, copied from above (single results of other studies):
`AAAVRKPIVLKR` — result for “motif binding score”: -0.246 (Saccharomyces cerevisiae; yeast competitive growth sequencing; peptide; concentration not given, peptide tiling library; baseline: Cln2-only background, direction not given).
For `O=C(O)[C@@H]1[C@@H](Cn2nnc3ccccc3c2=O)CC[C@H]1C(=O)c1ccc(OCCC2CCOCC2)cc1`, the remaining binding was 100% (Cyclin-dependent kinase 2 homolog (CRK2, Plasmodium falciparum, UniProt P61075); cell-free assay, competition with immobilised ligand; 1 µM).
`QKKAKARAFTISDSGY` has a binding score of -0.634 (human cyclin A2; peptide binding, competitive growth sequencing; peptide, Saccharomyces cerevisiae, cyclin A2-Cln2 fusion strain; concentration not given, peptide tiling library; baseline: unfused Cln2 strain, direction not given).
